Measurements gathered from unrelated publications.
Lines come from different studies, so protocols differ. ± gives the spread as reported.

With NCCCS(=O)(=O)O the half-life was 11.7 h (human, plasma; oral, 256.5 mg once daily, day 1, capsule, fasted).
The half-life of N#Cc1cccc(-c2ccc3ncc(-c4cc(F)cc(F)c4)c(N4CCC(N)CC4)c3c2)c1O is reported as 26 h (human male, plasma; oral, 20 mg, single dose, geometric mean).
For NC(=O)c1[nH]cnc1N, the half-life was 2.6 h (human patients, plasma; IV infusion over 1 h, 1000 mg/m^2 DTIC, cycle 2 day 1, staggered with co-drug).
With Fc1ccc([C@@H]2CCNC[C@H]2COc2ccc3c(c2)OCO3)cc1 the half-life was 20 h (human, CYP2D6 normal metabolizers; oral, 20 mg, steady state, geometric mean).
CN(C)N=Nc1[nH]cnc1C(N)=O has a half-life of about 2.5 h (human patients, plasma; intravenous, 1000 mg/m^2, cycle 2, without co-drug).
C#C[C@]1(CO)O[C@@H](n2cnc3c(N)nc(F)nc32)C[C@@H]1O has a half-life of 61.3 h (human, plasma; oral, 200 mg, single dose, geometric mean).
For CC#CC(=O)N1CC[C@@H](n2c(=O)n(-c3ccc(Oc4ccccc4)cc3)c3c(N)ncnc32)C1, the half-life was about 4.7 h (human, fasted, plasma; oral, 160 mg once daily, cycle 1 day 1).
With CCN(CC)Cc1cc(Nc2ccnc3cc(Cl)ccc23)ccc1O the half-life was 1.63 h (human, both sexes, plasma; oral, dose not given, fixed-dose combination).
For Cn1c(=O)oc2ccc(-c3ccc(C[C@@H](C#N)NC(=O)[C@@H]4CNCCCO4)cc3)cc21, the half-life was 39.1 h (human, normal renal function, plasma; oral, 25 mg single dose, mean).
The half-life of CO[C@@H]1[C@H](OC(=O)N2CC(CCN3CCOCC3)C2)CC[C@]2(CO2)[C@H]1[C@@]1(C)O[C@@H]1CC=C(C)C is reported as 0.37 ± 0.28 h (humans, plasma; subcutaneous, 0.2 mg twice weekly, fifth dose).
N#Cc1cc(NC(=O)[C@H]2c3ccccc3C(=O)N(CC(F)(F)F)[C@@H]2c2cccnc2)ccc1F has a half-life of 18.7 h (human, plasma; oral, 1200 mg, median).
CC(C)NC(=O)COc1cccc(-c2nc(Nc3ccc4[nH]ncc4c3)c3ccccc3n2)c1 gave a half-life of about 8 h (human, male, fed, plasma; oral, 200 mg once daily, day 8, geometric mean, together with: raltegravir).
The half-life of COC(=O)C(Cc1cccc(C)c1I)NC(=O)CNCc1ccccc1 (stereo not shown) is reported as over 2 h (human; 1 µM).
For C[C@@H](Nc1cc(F)cc(F)c1)c1cc(C(=O)N(C)C)cc2c(=O)cc(N3CCOCC3)oc12, the half-life was 4.29 to 7.86 h (human, plasma; oral, 180 mg single dose, day 1, range, 5:2 twice daily schedule).
C#C[C@]1(COP(=O)(O)O)O[C@@H](n2cnc3c(N)nc(F)nc32)C[C@@H]1O gave a half-life of 100 h (item: islatravir triphosphate; human, PBMC; oral, 30 mg single dose).
The half-life of COc1cc(C(=O)NC2CCN(C)CC2)c(F)cc1Nc1ncc(C(F)(F)F)c(Oc2cccc3c2C(=O)N(C)C3)n1 is reported as 20.4 h (human, Taiwanese, plasma; oral, 200 mg single dose, geometric mean).
CC(C)C[C@H](NC(=O)[C@H](CC(C)C)NC(=O)[C@H](Cc1c[nH]c2ccccc12)NC(=O)[C@H](CCC(=O)O)NC(=O)[C@@H](NC(=O)[C@H](Cc1ccccc1)NC(=O)[C@H](CCC(=O)O)NC(=O)[C@H](CCCCNC(=O)COCCOCCNC(=O)COCCOCCNC(=O)CC[C@H](NC(=O)CCCCCCCCCCCCCCCCCCC(=O)O)C(=O)O)NC(=O)[C@H](C)NC(=O)[C@H](CCCCN)NC(=O)[C@H](CCCCN)NC(=O)[C@H](CCC(=O)O)NC(=O)[C@H](CC(=O)O)NC(=O)[C@H](CC(C)C)NC(=O)[C@H](Cc1ccc(O)cc1)NC(=O)[C@H](CCCCN)NC(=O)[C@H](CO)NC(=O)[C@H](Cc1ccc(O)cc1)NC(=O)[C@H](CC(=O)O)NC(=O)[C@H](CO)NC(=O)[C@@H](NC(=O)[C@H](Cc1ccccc1)NC(=O)[C@@H](NC(=O)CNC(=O)[C@H](CCC(N)=O)NC(=O)C(C)(C)NC(=O)[C@@H](N)Cc1c[nH]cn1)[C@@H](C)O)[C@@H](C)O)C(C)C)C(=O)N[C@@H](CCC(=O)O)C(=O)NCC(=O)NCC(=O)N1CCC[C@H]1C(=O)N[C@@H](CO)C(=O)N[C@@H](CO)C(=O)NCC(N)=O gave a half-life of 194 h (human, plasma; subcutaneous, 16 mg once weekly, week 20, geometric mean).
With Cc1noc(C)c1-c1cc(C(O)(c2ccccn2)c2ccccn2)c2nc(C3CC3)[nH]c2c1 the half-life was 15.9 h (human patients, plasma; oral, 2 mg, cycle 1 day 8, monotherapy).
N#CCNC(=O)c1ccc(-c2ccnc(Nc3ccc(N4CCOCC4=O)cc3)n2)cc1 has a half-life of 6.68 h (healthy human volunteers, plasma; 100 mg momelotinib once daily, day 7, fed, momelotinib alone).
For O=C(COc1ccc(Cl)cc1)NC12CC(c3nnc([C@H]4C[C@@H](OC(F)(F)F)C4)o3)(C1)C2, the half-life was 29.5 h (healthy human volunteers fasted, plasma; oral, 200 mg single dose, geometric mean).
For C=CC(=O)NC1CCN(c2ncc3ncnc(Nc4ccc(Oc5ccc6c(c5)ncn6C)c(C)c4)c3n2)CC1, the half-life was 30.9 h (human, male, plasma; oral, 240 mg single dose, fasted, geometric mean).
The half-life of O=C(O)C[C@H](O)C[C@H](O)/C=C/c1c(C2CC2)nc2ccccc2c1-c1ccc(F)cc1 is reported as 2.6 h (OATP1B1/1B3 humanized mouse, plasma; oral, 5 mg/kg).
The half-life of COc1cc(C(=O)NC2CCN(C)CC2)c(F)cc1Nc1ncc(C(F)(F)F)c(Oc2cccc3c2C(=O)N(C)C3)n1 is reported as 19.4 h (human patients, plasma; oral, 300 mg single dose, geometric mean).
The half-life of COc1ccc([C@@H](O)c2cc(-c3ncnc4cc(N5CCOCC5)ccc34)c(F)cc2Cl)nn1 is reported as 6.56 h (human, plasma; oral, 150 mg once daily, single dose, geometric mean).
For CCN1CCN(Cc2ccc(Nc3ncc(F)c(-c4cc(F)c5nc6n(c5c4)[C@H](C)CCC6)n3)nc2)CC1, the half-life was 35.9 h (human, plasma; 200 mg single dose, mean).
O=C(NC[C@H](O)CO)c1ccncc1Nc1ccc(I)cc1F has a half-life of about 6 h (human).
The half-life of CC1(COc2ccc3c(c2)ncn3-c2ccc3cccc(N4CCC(N)CC4)c3n2)COC1 is reported as 9.1 h (human patients, recurrent/progressive HGG or DIPG, serum; oral, 130 mg/m^2, day 1, median).
CCN1CCN(Cc2ccc(Nc3ncc(F)c(-c4cc(F)c5nc(C)n(C(C)C)c5c4)n3)nc2)CC1 gave a half-life of 26.8 h (healthy human, fasted; oral, 150 mg, tablet).
For CCS(=O)(=O)Nc1ccc(Oc2ccc(F)cc2F)c(-c2cn(C)c(=O)c3[nH]ccc23)c1, the half-life was 14.9 ± 7.1 h (human, plasma; oral, 1.5 mg, cycle 1 day 8, harmonic mean).
[H]/N=C(/N)c1ccc(NCc2nc3cc(C(=O)N(CCC(=O)O)c4ccccn4)ccc3n2C)cc1 has a half-life of 8.14 h (healthy human subjects, plasma; oral, 150 mg, dabigatran etexilate alone, arithmetic mean).
CC(=O)O[C@H]1C(=O)[C@@]2(C)[C@H]([C@H](OC(=O)c3ccccc3)[C@]3(O)C[C@H](OC(=O)[C@H](O)[C@@H](NC(=O)c4ccccc4)c4ccccc4)C(C)=C1C3(C)C)[C@]1(OC(C)=O)CO[C@@H]1C[C@@H]2O has a half-life of 9.25 h (noncompartmental analysis; human cancer patients, plasma; intravenous infusion, 60 mg/m^2, cycle 1 day 1, together with: daily oral co-medication).
With CC(C)(C)OC[C@@H]1C(=O)NCCN1C(=O)C[C@H](N)Cc1cc(F)c(F)cc1F the half-life was 22.3 ± 6.31 h (healthy humans, plasma; oral, 5 mg, alone).
With Cc1cc(OCCOCCC(F)(F)P(=O)(O)O)ccc1CCc1cnc2c(N)nc3cc(CCC(=O)O)ccc3c2c1 the half-life was 19.9 h (human, serum; intratumoral, 100 µg every 2 weeks, cycle 1 day 1).
For NC(=S)NN=Cc1ncccc1N, the half-life was 1.4 h (LC-MS/MS; human, plasma).
Cc1nc(-c2ccc(OCC(C)C)c(C#N)c2)sc1C(=O)O has a half-life of 7.65 h (human, plasma; oral, 20 mg once daily, together with: verinurad 2.5 mg).
For Cn1cncc1[C@@](N)(c1ccc(Cl)cc1)c1ccc2c(c1)c(-c1cccc(Cl)c1)cc(=O)n2C, the half-life was 5 h (non-compartmental analysis; human, plasma; oral, 200 mg/m^2, median, first cycle dose).
C[C@H](Oc1ccc(Br)cc1-c1ccon1)C(=O)O has a half-life of 5.14 h (LC-MS/MS, non-compartmental; human, plasma; 200 mg once daily, day 10, multiple ascending dose, mean).
With CC(C)(Sc1ccncc1-c1ccc(C#N)c2ccccc12)C(=O)O the half-life was 24 h (human, plasma; oral, 5 mg once daily, together with: febuxostat 10 mg).
With NC(CO)(CO)CCc1ccc(Sc2cccc(OCc3ccccc3)c2)cc1Cl the half-life was 111 h (human, whole blood; oral, 3 mg, mean, together with: itraconazole 200 mg once daily).
C[C@H](O)c1cc(C(=O)N[C@@H](C)Cn2ccc(-c3ccc(C#N)c(Cl)c3)n2)n[nH]1 has a half-life of 16.4 h (human, fasted, plasma; oral, 300 mg darolutamide tablet, geometric mean).
Cc1cc(C)c(CNC(=O)c2cc(Cl)c3c(c2C)O[C@@](C)([C@H]2CC[C@H](N(C)C)CC2)O3)c(=O)[nH]1 has a half-life of 17.5 h (healthy male human, plasma; oral, 25 mg, alone, before itraconazole).
The half-life of COc1ncc(-c2nc3c(n2C(C)C)[C@H](c2ccc(Cl)cc2)N(c2cc(Cl)cn(C)c2=O)C3=O)c(OC)n1 is reported as 13.1 h (human, plasma; oral, 150 mg, C1D1, high-dose, median).
For CO[C@H]1C[C@@H]2CC[C@@H](C)[C@@](O)(O2)C(=O)C(=O)N2CCCC[C@H]2C(=O)O[C@H]([C@H](C)C[C@@H]2CC[C@@H](OC(=O)NCCOCCOCCOCCOCCOCCOCCOCCOCCC(=O)N3CCc4cc(Cn5nc(-c6ccc7oc(N)nc7c6)c6c(N)ncnc65)ccc4C3)[C@H](OC)C2)C[C@@H](O)[C@H](C)/C=C(\C)[C@@H](O)[C@@H](OC)C(=O)[C@H](C)C[C@H](C)/C=C/C=C/C=C/1C, the half-life was 5.7 h (human, plasma; intravenous, 8 mg, cycle 1 day 1, arithmetic mean).
O=C(O)CCC(=O)O.[2H]C([2H])([2H])Oc1cc(C)c2[nH]ccc2c1CN1CC[C@@H](C2CC2)C[C@H]1c1ccc(C(=O)O)cc1 gave a half-life of 30.8 h (human, plasma; 100 mg twice daily, day 10, multiple ascending dose, mean).
For Cc1ccc([C@@H]2O[C@H](CO)[C@@H](O)[C@H](O)[C@H]2O)cc1Cc1ccc(-c2ccc(F)cc2)s1, the half-life was 10.9 h (human, maintenance hemodialysis patients; oral, 100 mg once daily, steady state, mean).
The half-life of C=CC(=O)N(C)CCOc1c(N)ncnc1-c1cc(F)cc(NC(=O)c2ccc(C3CC3)cc2F)c1C is reported as 0.93 h (human, fed, whole blood; oral, 60 mg single dose, food effect study, median).
CC(C)[C@H](N)C(=O)NCCCS(=O)(=O)O gave a half-life of 0.934 h (human, plasma; oral, 256.5 mg once daily, day 1, fasted, capsule).
C[C@@H](N)c1cc(Cl)ccc1Cn1c(=S)[nH]c(=O)c2[nH]ccc21 gave a half-life of about 131 h (human, both sexes, severe renal impairment; oral, 2.5 mg single dose, geometric mean).
With Cn1nnc2c(C(N)=O)ncn2c1=O the half-life was 1.9 ± 0.7 h (human patients, plasma; oral, together with: talazoparib).

Some of these lines once more:
N#CCNC(=O)c1ccc(-c2ccnc(Nc3ccc(N4CCOCC4=O)cc3)n2)cc1 has a half-life of 6.68 h (healthy human volunteers, plasma; 100 mg momelotinib once daily, day 7, fed, momelotinib alone).
For CCN1CCN(Cc2ccc(Nc3ncc(F)c(-c4cc(F)c5nc6n(c5c4)[C@H](C)CCC6)n3)nc2)CC1, the half-life was 35.9 h (human, plasma; 200 mg single dose, mean).
With CC(C)(Sc1ccncc1-c1ccc(C#N)c2ccccc12)C(=O)O the half-life was 24 h (human, plasma; oral, 5 mg once daily, together with: febuxostat 10 mg).
C[C@H](O)c1cc(C(=O)N[C@@H](C)Cn2ccc(-c3ccc(C#N)c(Cl)c3)n2)n[nH]1 has a half-life of 16.4 h (human, fasted, plasma; oral, 300 mg darolutamide tablet, geometric mean).
